Measured values pooled from the literature.
Every numbered part comes from another study and shows a few of its results, in no order. Positions count from the first letter of the parent shown.
Chain of UniProt Q9NPD8 (whole entry, looked up): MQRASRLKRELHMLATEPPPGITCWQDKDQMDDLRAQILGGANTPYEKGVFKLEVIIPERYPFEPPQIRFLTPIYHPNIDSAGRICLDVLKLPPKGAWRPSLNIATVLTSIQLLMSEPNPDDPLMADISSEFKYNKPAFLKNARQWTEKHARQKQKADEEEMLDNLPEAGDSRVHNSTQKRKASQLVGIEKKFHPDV
Chain of UniProt Q9H832 (whole entry, looked up): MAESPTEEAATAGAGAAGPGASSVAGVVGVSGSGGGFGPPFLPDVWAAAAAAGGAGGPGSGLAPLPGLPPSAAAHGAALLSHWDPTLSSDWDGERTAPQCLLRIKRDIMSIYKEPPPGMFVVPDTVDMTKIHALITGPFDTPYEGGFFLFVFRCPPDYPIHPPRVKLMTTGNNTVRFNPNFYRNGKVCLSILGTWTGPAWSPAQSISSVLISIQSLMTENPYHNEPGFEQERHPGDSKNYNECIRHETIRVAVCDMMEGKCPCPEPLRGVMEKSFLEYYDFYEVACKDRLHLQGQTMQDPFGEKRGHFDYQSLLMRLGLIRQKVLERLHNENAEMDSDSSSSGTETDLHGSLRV
Chain of UniProt P62253 (whole entry, looked up): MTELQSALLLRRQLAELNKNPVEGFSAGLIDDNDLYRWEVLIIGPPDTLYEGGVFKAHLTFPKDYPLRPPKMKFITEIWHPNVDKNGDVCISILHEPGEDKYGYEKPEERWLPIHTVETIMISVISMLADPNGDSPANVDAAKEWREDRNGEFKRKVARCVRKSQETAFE
Chain of UniProt O00762 (whole entry, looked up): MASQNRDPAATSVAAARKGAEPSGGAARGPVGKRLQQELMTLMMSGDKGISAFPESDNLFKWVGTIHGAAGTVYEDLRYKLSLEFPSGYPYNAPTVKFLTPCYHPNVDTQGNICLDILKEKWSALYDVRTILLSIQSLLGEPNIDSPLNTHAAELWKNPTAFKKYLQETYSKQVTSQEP
Chain of UniProt Q7Z7E8 (whole entry, looked up): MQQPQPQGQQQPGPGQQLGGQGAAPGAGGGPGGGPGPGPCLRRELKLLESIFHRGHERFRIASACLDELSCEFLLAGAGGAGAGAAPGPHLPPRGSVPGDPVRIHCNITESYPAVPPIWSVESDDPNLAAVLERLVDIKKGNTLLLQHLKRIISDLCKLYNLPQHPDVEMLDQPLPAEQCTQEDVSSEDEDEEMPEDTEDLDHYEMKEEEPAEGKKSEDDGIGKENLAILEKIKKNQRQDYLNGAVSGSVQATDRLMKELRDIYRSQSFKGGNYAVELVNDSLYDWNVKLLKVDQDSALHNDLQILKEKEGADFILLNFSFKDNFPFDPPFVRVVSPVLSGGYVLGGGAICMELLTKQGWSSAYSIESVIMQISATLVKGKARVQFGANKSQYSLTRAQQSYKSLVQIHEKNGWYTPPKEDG
Chain of UniProt P61081 (whole entry, looked up): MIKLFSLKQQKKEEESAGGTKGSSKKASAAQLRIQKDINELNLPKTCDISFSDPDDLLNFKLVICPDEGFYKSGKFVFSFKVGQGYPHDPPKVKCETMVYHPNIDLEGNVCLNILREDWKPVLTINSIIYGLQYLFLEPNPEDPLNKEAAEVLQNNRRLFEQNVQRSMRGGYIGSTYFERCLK
Chain of UniProt Q712K3 (whole entry, looked up): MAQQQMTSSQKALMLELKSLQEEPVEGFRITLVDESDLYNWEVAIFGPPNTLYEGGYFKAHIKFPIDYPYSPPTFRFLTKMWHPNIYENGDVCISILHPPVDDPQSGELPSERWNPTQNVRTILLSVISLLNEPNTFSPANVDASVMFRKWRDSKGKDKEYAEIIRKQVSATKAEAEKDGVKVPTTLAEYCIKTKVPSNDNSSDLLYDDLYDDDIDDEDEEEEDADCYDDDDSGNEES

Sample 1
Sequence: LGTKLEAKYLCSACRNVLRRPFQAQCGHRYCSFCLASILSSGPQNCAACVHEGIYEEGIS (TRAF2 RING domain (UniProt Q12933))
Technique: yeast two-hybrid
Medium: yeast
Notes: mostly zero background
Baseline: not given
Reading: higher = stronger interaction
The “lacZ reporter activity” was 2290 (UBE2Z UBC core domain (UniProt Q9H832)).
For UBE2G1 UBC core domain (UniProt P62253): “lacZ reporter activity” read 0.
For UBE2M UBC core domain (UniProt P61081): “lacZ reporter activity” read 0.
It gave 0 for “lacZ reporter activity” (UBE2I UBC core domain (UniProt P63279)).
For UBE2T UBC core domain (UniProt Q9NPD8): “lacZ reporter activity” read 0.
The “lacZ reporter activity” was 0 (UBE2C UBC core domain (UniProt O00762)).
It gave 0 for “lacZ reporter activity” (UBE2Q1 UBC core domain (UniProt Q7Z7E8)).
For UBE2R2 UBC core domain (UniProt Q712K3): “lacZ reporter activity” read 0.

Sample 2
Target: RNA binding protein fox-1 homolog 2, RRM domain, GST-SBP tag (RBFOX2, Homo sapiens, UniProt O43251-10, residues 100-194)
Technique: RNA Bind-n-Seq
Form: RNA
Medium: in vitro
Concentration: 365 nM
Notes: natural RNA segment, single round, ends assumed
Baseline: no-protein control
Reading: higher = stronger binding
Residues (chain): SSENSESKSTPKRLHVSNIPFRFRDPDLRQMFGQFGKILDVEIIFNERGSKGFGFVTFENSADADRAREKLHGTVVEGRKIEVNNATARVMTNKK
`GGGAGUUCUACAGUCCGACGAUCGCUGAGAUUCCCAUUUCUCUUAAGGAGAAGCCACCCAUGAGAUGUCUUUUCCUUCUCCAUCAUCUUAGAGCCAAGUUAUAUGUUCUUGUCUAAUCCAUGUAGCUUUUUGUUGGAAUUCUCGGGUGCCAA`: “RBNS enrichment (R)” 0.474.
`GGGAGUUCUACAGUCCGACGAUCUCAGGUUUGUUUACCAUCUCUCCGAGCCUCCACCACACUCCCUGACCCACCCAACGUCUCCAGUUCUUAUUGUUCUCCUUCCUUCCUUCUUUCCUUUCCCUUCUCACCUCUGGAAUUCUCGGGUGCCAA`: “RBNS enrichment (R)” 1.18.
`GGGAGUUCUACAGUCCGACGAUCUGAGGAGCCAGAAGAAACAGAGCCCGACUUGAAUGAACUCAGCUCAGAGUUCUAAGGACCAGCAUUCUGGGGGCCAUUUUCUCUACAGGCAAAUGGAAUUGCUUUUCCAUUGGAAUUCUCGGGUGCCAA`: “RBNS enrichment (R)” 0.347.
`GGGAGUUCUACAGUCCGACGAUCUAUCCCCGCACUUAGUCAUUCGUGGUAACUAACAAUUUUGAAAUACUCAUAUAAAAUGAACAGGAAAGUGUUAGUGAUUGGGUGAUUUGAGCUACAUCUUGUUGAGCAAGUGGAAUUCUCGGGUGCCAA` — result for “RBNS enrichment (R)”: 0.339.
`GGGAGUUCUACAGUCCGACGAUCCUUGGGAAGAAAUGGCCAUUAUUUACAGAUUGUAUUUGGUACAUAUUGUGUGAUACUUGAAAAGAUAAAAGGGACUGCCAGCCCCUAACUGAAAUCUGAAGCUUUUUAUCUGGAAUUCUCGGGUGCCAA` — result for “RBNS enrichment (R)”: 0.545.
`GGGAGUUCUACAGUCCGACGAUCGCAGUUCAGUACAACUGCUCUUUUCACACUCAACUCCCUAAAACUCCUUGUAACCUUCUGUAACUAUUGGAUGACGCUUUCUCCAGCUUAGCCCUAAAUAAAGCACAGUUUGGAAUUCUCGGGUGCCAA`: “RBNS enrichment (R)” 0.248.
Under “RBNS enrichment (R)”, `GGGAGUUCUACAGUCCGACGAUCGGGAGGGGAAGUUGCAUACAAAGAUAUAUAUCCAAGUUUCCGAAGUAGAGUUUUUAGAUUACUUUUUCAAUGUAAAUAAUGUAUAUUUAAUGUCACAAGAAAUUGUUUUCUGGAAUUCUCGGGUGCCAA` is recorded as 0.817.
`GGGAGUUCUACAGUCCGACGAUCACUCACACUUCUAUAUUUGCACUGGGGAAGACAUAUUCCUAAAAAUGGAUACAUAACAAAGAAUUCUCUGUGACUUAUUAAGAAUGACUGUGUCUGCCCAGUAACCUGUUUGGAAUUCUCGGGUGCCAA`: “RBNS enrichment (R)” 0.445.

Sample 3
Target: ABI1, truncated, D143A, DHFR fusion (Arabidopsis thaliana)
Technique: DHFR PCA, deep sequencing
Medium: yeast
Notes: methotrexate growth selection, single substitutions
Added: (+)-ABA 0.0091 µM
Baseline: wild-type fitted maximum
Reading: higher = stronger binding
Starting sequence: PYL1, truncated, DHFR fusion (Arabidopsis thaliana); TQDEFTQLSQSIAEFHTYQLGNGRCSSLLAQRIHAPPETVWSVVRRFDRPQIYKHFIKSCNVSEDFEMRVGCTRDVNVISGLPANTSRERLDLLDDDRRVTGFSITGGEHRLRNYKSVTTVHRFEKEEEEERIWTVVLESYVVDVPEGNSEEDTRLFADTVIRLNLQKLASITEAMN
Under “relative binding score”, `L94W` is recorded as 0.667%.
For `I52T`, “relative binding score” read 42.3%.
`E127S` — result for “relative binding score”: 32%.
`T120L`: “relative binding score” -8.11%.
`I133N` — result for “relative binding score”: 40.4%.
`E64M` — result for “relative binding score”: -6.99%.
`I133S` — result for “relative binding score”: 43.7%.
For `R123N`, “relative binding score” read 6.48%.
Under “relative binding score”, `L94K` is recorded as -6.75%.
For `I33T`, “relative binding score” read 1.65%.
Under “relative binding score”, `S104G` is recorded as -0.697%.
For `T120K`, “relative binding score” read -2.69%.
Under “relative binding score”, `L20R` is recorded as 25.8%.
`V121E` — result for “relative binding score”: -1.7%.
`H34I`: “relative binding score” 4.62%.
Under “relative binding score”, `K54T` is recorded as 2.33%.
`D48I`: “relative binding score” 4.8%.
Under “relative binding score”, `L8F` is recorded as 38.8%.
`A175V` — result for “relative binding score”: 4.07%.
`S104E` — result for “relative binding score”: -2.18%.
`Q10L` — result for “relative binding score”: 5.06%.
For `L8S`, “relative binding score” read 3.17%.
For `R163N`, “relative binding score” read -1.97%.
For `L28T`, “relative binding score” read 3.13%.
`E128N`: “relative binding score” 26.9%.

Sample 4
Target: Interferon regulatory factor 5, full length, phosphomimetic (IRF5, Homo sapiens, UniProt Q13568-2, residues 1-514, K96S/S451D/S453D/S456D/S462D)
Technique: protein-binding microarray
Form: double-stranded DNA, one strand shown
Medium: in vitro
Concentration: 250 nM
Notes: 60-bp whole probe
Added: salmon DNA 0.4 mg/ml
Baseline: random background probes
Reading: higher = stronger binding
All sequences stand within: GCCTAGCAC … GTCTTGATTCGCTTGACGCTGCTG
The log fluorescence of `TAAGGACTGGGTCTCGGTTAGTGCTAG` is reported as 0.184 z-score.
`CTACTTCTCTTTTTGCTTTCGTGCTAG` has a log fluorescence of 3.14 z-score.
`GACGATAACAGTTTCGAGACGTGCTAG` has a log fluorescence of 5.79 z-score.
`GACGGTTTAGGGACTGGGGACGTGCTA` gave a log fluorescence of 0.102 z-score.
`CCAAGTTTATACCTTAGGTTGTGCTAG` has a log fluorescence of -0.14 z-score.
The log fluorescence of `TTAGGTTTCCTTTCGCTTTAGTGCTAG` is reported as 7.28 z-score.
`TTCGGTATCGGGTTTCGGTTAGTGCTA` has a log fluorescence of 8.89 z-score.
`AACTTGGCAGGAGCGAATGGGTGCTAG` has a log fluorescence of -0.58 z-score.
With `TGTTACATTTATATCTTTGCGTGCTAG` the log fluorescence was 0.798 z-score.
The log fluorescence of `GACGATTTCAGACTGTAGACGTGCTAG` is reported as 0.429 z-score.
The log fluorescence of `GACCGTTTCGACTTTCGGGACGTGCTA` is reported as 8.11 z-score.
With `GACGGTATCGGGCTTCGGGACGTGCTA` the log fluorescence was 1.02 z-score.
`GACGGTTTCGGGTATCGGAACGTGCTA` gave a log fluorescence of 8.81 z-score.
`TCAGCTTTCATTTATTTACTGTGCTAG` has a log fluorescence of 3.37 z-score.
For `GAAGGACTGGACTTTCGGGACGTGCTA`, the log fluorescence was 4.66 z-score.
For `TACGATCTCAGTATCGAGACGTGCTAG`, the log fluorescence was 1.94 z-score.
`GACGGACTGGACACTAGGGACGTGCTA` has a log fluorescence of -0.51 z-score.

Sample 5
Target: CCNB1, cyclin fold, Cln2 fusion (human)
Technique: yeast growth competition, sequencing
Medium: yeast
Notes: weak parent motif
Baseline: not given
Reading: higher = stronger binding
Starting sequence: CDC25A docking peptide (human); PPHRRRLLFACSP
Under “normalised enrichment score”, `PPHRRRLLFPCSP [A10P]` is recorded as 0.762.
For `PPHRRRLLFACRP [S12R]`, “normalised enrichment score” read 0.907.
Under “normalised enrichment score”, `PPHRRRLHFACSP [L8H]` is recorded as 0.546.
`PPQRRRLLFACSP [H3Q]` — result for “normalised enrichment score”: -0.0841.
`PPHRRRLLFAHSP [C11H]` — result for “normalised enrichment score”: 0.523.
`PPHRRRLLFAFSP [C11F]` — result for “normalised enrichment score”: 0.766.
`PRHRRRLLFACSP [P2R]`: “normalised enrichment score” 0.48.
`PPHRWRLLFACSP [R5W]`: “normalised enrichment score” 0.284.
`PPHRRRLLVACSP [F9V]`: “normalised enrichment score” 0.515.
For `PPHRRSLLFACSP [R6S]`, “normalised enrichment score” read 0.448.
`PPHRRRLLCACSP [F9C]` — result for “normalised enrichment score”: 0.389.
For `WPHRRRLLFACSP [P1W]`, “normalised enrichment score” read 0.46.
For `PPHRRDLLFACSP [R6D]`, “normalised enrichment score” read 0.11.
For `PPHRRRLQFACSP [L8Q]`, “normalised enrichment score” read -0.266.
`PPHRRRLLFWCSP [A10W]` — result for “normalised enrichment score”: 0.293.
Under “normalised enrichment score”, `PPHRRRLLYACSP [F9Y]` is recorded as 1.05.
Under “normalised enrichment score”, `PPHRRRLLFACGP [S12G]` is recorded as 0.989.
`PPHRRRLDFACSP [L8D]` — result for “normalised enrichment score”: 0.465.
For `PPHRRRLLFACSI [P13I]`, “normalised enrichment score” read 0.744.
Under “normalised enrichment score”, `PPHLRRLLFACSP [R4L]` is recorded as 1.37.
For `PPHRRRLLFGCSP [A10G]`, “normalised enrichment score” read 0.226.
`PPHARRLLFACSP [R4A]` — result for “normalised enrichment score”: 1.23.
`PPHRRRELFACSP [L7E]` — result for “normalised enrichment score”: 0.399.
Under “normalised enrichment score”, `PPHRRRLLFACHP [S12H]` is recorded as 0.571.
For `PPHRRRLLFACFP [S12F]`, “normalised enrichment score” read 0.223.

Repeated from above (sample 3):
Under “relative binding score”, `L94K` is recorded as -6.75%.
For `I33T`, “relative binding score” read 1.65%.
Under “relative binding score”, `S104G` is recorded as -0.697%.
For `T120K`, “relative binding score” read -2.69%.
Under “relative binding score”, `L20R` is recorded as 25.8%.
`V121E` — result for “relative binding score”: -1.7%.
`H34I`: “relative binding score” 4.62%.
Under “relative binding score”, `K54T` is recorded as 2.33%.
`D48I`: “relative binding score” 4.8%.
Under “relative binding score”, `L8F` is recorded as 38.8%.
`A175V` — result for “relative binding score”: 4.07%.
